Results pooled from the literature.
Compare with care: the assays were run in different laboratories. “And” joins repeats or separate records; there may be more than shown. Numbers after ± are the reported error.
Chain of UniProt Q16853 (whole entry, looked up): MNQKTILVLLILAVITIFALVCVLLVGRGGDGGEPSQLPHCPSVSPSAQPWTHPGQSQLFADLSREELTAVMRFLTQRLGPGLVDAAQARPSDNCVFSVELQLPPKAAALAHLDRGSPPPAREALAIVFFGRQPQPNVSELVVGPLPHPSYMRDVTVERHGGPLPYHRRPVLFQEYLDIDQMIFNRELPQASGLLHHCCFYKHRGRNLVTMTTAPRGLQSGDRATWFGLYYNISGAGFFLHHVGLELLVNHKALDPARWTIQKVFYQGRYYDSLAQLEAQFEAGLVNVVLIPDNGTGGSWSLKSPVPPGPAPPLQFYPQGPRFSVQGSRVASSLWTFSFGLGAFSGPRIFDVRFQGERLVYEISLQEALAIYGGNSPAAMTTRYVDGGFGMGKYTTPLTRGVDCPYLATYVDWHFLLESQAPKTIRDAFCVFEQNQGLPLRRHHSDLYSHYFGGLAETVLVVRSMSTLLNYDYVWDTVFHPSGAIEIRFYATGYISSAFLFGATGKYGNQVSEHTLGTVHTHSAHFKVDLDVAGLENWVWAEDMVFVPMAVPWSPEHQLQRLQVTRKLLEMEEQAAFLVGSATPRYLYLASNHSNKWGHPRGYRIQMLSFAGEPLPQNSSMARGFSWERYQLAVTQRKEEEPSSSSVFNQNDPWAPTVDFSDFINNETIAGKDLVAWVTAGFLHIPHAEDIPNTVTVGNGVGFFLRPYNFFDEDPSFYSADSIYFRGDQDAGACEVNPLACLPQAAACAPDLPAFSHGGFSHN

`CC(=O)Nc1cccc(-n2c(=O)n(C3CC3)c(=O)c3c(Nc4ccc(I)cc4F)n(C)c(=O)c(C)c32)c1` gave a viability of 0.962 and 0.814 (MeWo; resazurin; 1.56 nM, 72 h, unit not given; reference: DMSO).
`CC[C@H](CO)N(CCN(N=O)[C@H](CC)CO)N=O`: “revertant colonies per plate” 135 ± 26 (Escherichia coli; mutagenicity, Ames plate incorporation; WP2 uvrA pKM101; 5000 µg/plate, without S9, methanol).
Under “Papp A to B”, `CCn1c(=O)c2c(nc(/C=C/c3ccc(OC)c(OC)c3)n2C)n(CC)c1=O` is recorded as 38 ×10⁻⁶ cm/s and 23.5 ×10⁻⁶ cm/s (MDCK; 1 µM, 90 min, pH 6.5 apical, 7.4 basolateral).
`CCOc1c([C@H](C)n2nc(C)c3c(N)ncnc32)cc(Cl)c(F)c1[C@@H]1CNC(=O)C1` gave an AUC(0-tau) of 11.9 µM·h (human, B-cell malignancies, plasma; oral, 20 mg, day 15, geometric mean).
With `NCc1cc2c(cc1F)C(=O)N(C1CCC(=O)NC1=O)C2` (centres unmarked) the concentration was 21300 ng/mL and 20100 ng/mL (AOC3 (Homo sapiens, UniProt Q16853); substrate, LC-MS/MS; cirrhotic human liver lysate; 250.00 µM, 60 min, pH 7.4).
For `CCN1/C(=C/C(C)=O)Sc2ccc(F)cc21`, “mean blood pressure change” read 99.4 ± 4.7% (cynomolgus monkey; oral, 30 mg/kg, 0.5 h post-dose; reference: pre-dose).
With `Cc1cc(C(=O)NC(C)(C)COc2cccc3c2C(N)=NS(=O)(=O)N3)cc(C)n1` the cytotoxicity was -3% (human peripheral blood lymphocytes; CBPI, preliminary test; 2 µg/mL, 4 h; reference: vehicle control).
For `Cc1cc(Nc2ccc(S(F)(F)(F)(F)F)cc2)n2nc(C(C)(F)F)nc2n1`, “patients with blurred vision” read 0% (Plasmodium vivax; human Plasmodium vivax malaria patients; oral, 800 mg).

Excerpt of the above:
`CC[C@H](CO)N(CCN(N=O)[C@H](CC)CO)N=O`: “revertant colonies per plate” 135 ± 26 (Escherichia coli; mutagenicity, Ames plate incorporation; WP2 uvrA pKM101; 5000 µg/plate, without S9, methanol).
